Measurements gathered from unrelated publications.
Protocols differ between the studies behind these lines. Values after ≈ are worked out from the molar mass of the structure shown.
Organism: Enterococcus faecalis

CNC1=C([N+](=O)[O-])C2(C(=O)Nc3ccccc32)C2=C(CCCC2=O)O1 (centres unmarked) gave a growth inhibition of 37.8% (MTCC 439; 250 µg/mL, 24 h).
COc1cc(Cc2cnc(N)nc2N)cc(/C=C/C(=O)N2N=Cc3ccccc3C2c2ccccc2)c1OC (centres unmarked) gave an MIC of 0.25 µg/mL (≈ 0.48 µM) (microbial growth, broth dilution; ATCC29212; pH 5.8).
Cc1ccc2ccc3ccc(C)nc3c2n1.Cc1ccc2ccc3ccc(C)nc3c2n1.O.[Cl-].[Cl-].[Cl-].[Yb+3] gave an inoculation time of 48 h (bacterial growth).
CC(C)=CCc1cc([C@@H]2CC(=O)c3c(O)cc(O)c(CC=C(C)C)c3O2)cc(CC=C(C)C)c1O — result for antibacterial activity: “inactive” (ATCC 29212; concentration not given).
The growth inhibition of CNC1=C([N+](=O)[O-])C2(C(=O)Nc3ccc(Cl)cc32)C2=C(O1)C(=O)c1ccccc1C2=O (centres unmarked) is reported as 67.2% (MTCC 439; 250 µg/mL, 24 h).
With CN(C)c1cc(CN2CCCC2)c(O)c2c1C[C@H]1C[C@H]3[C@H](N(C)C)C(O)=C(C(N)=O)C(=O)[C@@]3(O)C(O)=C1C2=O the MIC was 2 µg/mL (≈ 3.7 µM) (JH2-2(pMV158), Tet L efflux).
For COc1cc(Cc2cnc(N)nc2N)cc(/C=C/C(=O)N2N=Cc3ccccc3C2C=C(C)C)c1OC (centres unmarked), the MIC was 0.06 to 0.125 µg/mL (≈ 0.12 to 0.251 µM) (microbial growth, broth dilution; ATCC29212; pH 7).
For CNCc1cc(N(C)C)c2c(c1O)C(=O)C1=C(O)[C@]3(O)C(=O)C(C(N)=O)=C(O)[C@@H](N(C)C)[C@@H]3C[C@@H]1C2, the MIC was 4 µg/mL (≈ 7.99 µM) (microbial growth, broth dilution).
COc1c(CC=C(C)C)c(O)cc2c1-c1oc3c(CC=C(C)C)c(O)ccc3c1CO2 — result for antibacterial activity: “inactive” (ATCC 29212; concentration not given).
With CN(Cc1cc(N(C)C)c2c(c1O)C(=O)C1=C(O)[C@]3(O)C(=O)C(C(N)=O)=C(O)[C@@H](N(C)C)[C@@H]3C[C@@H]1C2)CC(C)(C)C the MIC was 0.25 µg/mL (≈ 0.438 µM) (JH2-2(pMV158), Tet L efflux).
Under antibacterial activity, COc1ccc2c3c(oc2c1CC=C(C)C)-c1cc(CC=C(C)C)c(O)cc1OC3 is recorded as “inactive” (ATCC 29212; concentration not given).

Some of these lines once more:
Under antibacterial activity, COc1ccc2c3c(oc2c1CC=C(C)C)-c1cc(CC=C(C)C)c(O)cc1OC3 is recorded as “inactive” (ATCC 29212; concentration not given).
